# Published values from different studies.
# Each line is one published result; not all experiments were run side by side.
# UniProt Q16816, sequence (whole entry, looked up): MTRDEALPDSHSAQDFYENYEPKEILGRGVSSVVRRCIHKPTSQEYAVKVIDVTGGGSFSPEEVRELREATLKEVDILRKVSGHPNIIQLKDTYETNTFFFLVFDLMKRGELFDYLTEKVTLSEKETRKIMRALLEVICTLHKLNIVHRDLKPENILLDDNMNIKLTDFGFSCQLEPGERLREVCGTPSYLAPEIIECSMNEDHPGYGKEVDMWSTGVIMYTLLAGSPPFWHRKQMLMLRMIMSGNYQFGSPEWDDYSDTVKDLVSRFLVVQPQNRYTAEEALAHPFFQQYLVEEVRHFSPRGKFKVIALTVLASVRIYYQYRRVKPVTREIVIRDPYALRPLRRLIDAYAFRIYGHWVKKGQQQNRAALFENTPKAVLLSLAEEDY
# UniProt O00329, sequence (whole entry, looked up): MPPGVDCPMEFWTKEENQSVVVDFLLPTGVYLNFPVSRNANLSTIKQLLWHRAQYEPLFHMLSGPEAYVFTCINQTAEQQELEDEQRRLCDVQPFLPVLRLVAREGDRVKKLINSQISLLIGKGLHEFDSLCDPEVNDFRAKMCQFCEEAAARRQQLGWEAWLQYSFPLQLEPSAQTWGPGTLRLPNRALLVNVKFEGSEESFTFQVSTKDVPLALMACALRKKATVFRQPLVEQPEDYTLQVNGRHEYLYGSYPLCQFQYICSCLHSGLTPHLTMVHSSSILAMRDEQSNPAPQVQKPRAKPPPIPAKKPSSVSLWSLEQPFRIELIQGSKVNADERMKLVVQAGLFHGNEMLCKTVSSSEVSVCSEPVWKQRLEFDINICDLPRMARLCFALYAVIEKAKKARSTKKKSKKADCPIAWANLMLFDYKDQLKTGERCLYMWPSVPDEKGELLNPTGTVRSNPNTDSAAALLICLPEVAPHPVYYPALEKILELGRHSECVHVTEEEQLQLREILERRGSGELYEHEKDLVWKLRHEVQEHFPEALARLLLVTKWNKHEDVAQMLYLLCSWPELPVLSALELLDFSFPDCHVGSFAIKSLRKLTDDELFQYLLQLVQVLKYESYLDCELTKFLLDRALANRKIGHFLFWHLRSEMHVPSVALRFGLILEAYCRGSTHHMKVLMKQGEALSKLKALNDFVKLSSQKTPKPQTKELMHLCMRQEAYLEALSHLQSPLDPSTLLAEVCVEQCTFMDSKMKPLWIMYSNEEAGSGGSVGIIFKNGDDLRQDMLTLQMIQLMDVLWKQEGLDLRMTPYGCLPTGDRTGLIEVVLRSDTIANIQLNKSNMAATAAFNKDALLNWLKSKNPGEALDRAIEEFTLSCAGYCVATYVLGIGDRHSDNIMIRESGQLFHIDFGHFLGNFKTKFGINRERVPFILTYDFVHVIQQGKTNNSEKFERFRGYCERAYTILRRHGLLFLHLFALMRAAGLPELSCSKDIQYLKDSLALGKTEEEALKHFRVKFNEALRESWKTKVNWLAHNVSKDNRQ
Compound,tested on,test,test system,setting,measurement,result
COC(=O)c1cc(-c2cccc(NC(=O)Nc3cccc(Cl)c3)c2)on1,Acinetobacter baumannii,"microbial growth, broth dilution",BAA1605,,MIC,> 64 µg/mL
COc1ncccc1-c1cnn2ccc(N3CCN(C(=O)OC(C)C)CC3)nc12,"PIK3CD (Homo sapiens, UniProt O00329)","binding, competition with immobilised ligand",,1 µM,remaining binding,68%
CC(C)[C@@H]1NC(=O)[C@@H](CC(N)=O)NC(=O)[C@H](CCCN)NC(=O)[C@@H](CC(N)=O)NC(=O)[C@H](CCCCN)NC(=O)[C@H](C(C)C)NC(=O)[C@@H](C(C)C)NC(=O)[C@@H](C(C)C)NC(=O)[C@@H](C(C)C)NC1=O,Balamuthia mandrillaris,"parasite growth, ATP luminescence",,,IC50,> 16 µg/mL
Oc1c(Br)cc(Br)cc1-c1[nH]c(Br)c(Br)c1Br,Escherichia coli,microbial growth,"K12, MG1655",,MIC,10.7 µM
O=C(NNc1ccccc1)c1nnc(CC23CC4CC(CC(C4)C2)C3)o1,Fusarium oxysporum,microbial growth,,,EC50,> 12.5 µg/mL
COC(=O)c1cc(-c2cccc(NC(=O)Nc3ccc(OC)cc3)c2)on1,Acinetobacter baumannii,"microbial growth, broth dilution",BAA1605,,MIC,> 64 µg/mL
O=C(NNc1ccc(F)c(F)c1)c1nnc(C23CC4CC(CC(C4)C2)C3)o1,Fusarium oxysporum,microbial growth,,,EC50,5.95 µg/mL
C[C@H]1NC(=O)[C@H](Cc2c[nH]c3ccccc23)NC(=O)[C@@H](Cc2ccccc2)NC(=O)[C@@H](CCCN)NC(=O)[C@H]([C@@H](C)O)NC(=O)[C@@H](CCCN)NC(=O)[C@H](Cc2c[nH]c3ccccc23)NC(=O)[C@@H](C)NC1=O,Balamuthia mandrillaris,"parasite growth, ATP luminescence",,,IC50,> 16 µg/mL
CC(=O)N1CCN(c2ccc(OCC3COC(Cn4ccnc4)(c4ccc(Cl)cc4Cl)O3)cc2)CC1 (stereo not shown),Candida albicans,"microbial killing, broth dilution",17546,48 h,MFC,> 64 µM
COC(=O)c1cc(-c2cccc(NC(=O)NCc3ccccc3)c2)on1,Mycobacteroides abscessus,"microbial growth, broth dilution",ATCC19977,48 h,MIC,> 64 µg/mL
Oc1c(Cl)cc(Cl)cc1-c1[nH]c(Cl)c(Cl)c1Cl,Salmonella enterica,microbial growth,ATCC13311,,MIC,10.7 µM
NCCCC[C@H]1NC(=O)[C@H](Cc2ccccc2)NC(=O)[C@H](Cc2c[nH]c3ccccc23)NC(=O)[C@@H](Cc2ccccc2)NC(=O)[C@H](Cc2ccccc2)NC(=O)[C@@H](CCCN)NC(=O)[C@H](CCCN)NC1=O,Balamuthia mandrillaris,"parasite growth, ATP luminescence",,,IC90,9.92 µg/mL
[2H]c1c([2H])c([C@]2([2H])CCCN2C(=O)C(C)(C)Oc2ccc3cn[nH]c3c2)c([2H])c([2H])c1C([2H])([2H])[2H],"PHKG1 (Homo sapiens, UniProt Q16816)","binding, competition with immobilised ligand",,1 µM,remaining binding,84%
CC(C)[C@@H]1NC(=O)[C@@H](C(C)C)NC(=O)[C@H](C)NC(=O)[C@H](CO)NC(=O)[C@H](Cc2c[nH]c3ccccc23)NC(=O)[C@@H](Cc2ccc(O)cc2)NC(=O)[C@H](CCCN)NC(=O)[C@H](Cc2c[nH]c3ccccc23)NC1=O,Balamuthia mandrillaris,"parasite growth, ATP luminescence",,,IC90,> 16 µg/mL
COC(=O)c1cc(-c2ccc(NC(=O)Nc3ccc(Cl)c(Cl)c3)cc2)on1,Acinetobacter baumannii,"microbial growth, broth dilution",BAA1605,,MIC,> 64 µg/mL
O=C(NNc1cc(F)ccc1F)c1nnc(C23CC4CC(CC(C4)C2)C3)o1,Fusarium oxysporum,microbial growth,,,EC50,6.79 µg/mL
COC(=O)c1cc(-c2cccc(NC(=O)Nc3ccccc3C)c2)on1,Escherichia coli,"microbial growth, broth dilution",ATCC25922,,MIC,> 64 µg/mL
O=C(NNc1cccc(Cl)c1)c1nnc(CC23CC4CC(CC(C4)C2)C3)o1,Sclerotinia sclerotiorum,microbial growth,,50 µg/mL,inhibition,100%
CC(C)[C@@H]1NC(=O)[C@@H](CCCCN)NC(=O)[C@H]([C@@H](C)O)NC(=O)[C@H](Cc2ccccc2)NC(=O)[C@@H](Cc2ccccc2)NC(=O)[C@H]([C@@H](C)O)NC(=O)[C@@H](CCCN)NC1=O,Balamuthia mandrillaris,"parasite growth, ATP luminescence",,,IC90,> 16 µg/mL
O=C(NNc1ccc(F)c(F)c1)c1nnc(CC23CC4CC(CC(C4)C2)C3)o1,Fusarium oxysporum,microbial growth,,,EC50,7.43 µg/mL
COC(=O)c1cc(-c2cccc(NC(=S)Nc3ccc(F)c(Cl)c3)c2)on1,Mycobacteroides abscessus,"microbial growth, broth dilution",ATCC19977,48 h,MIC,> 64 µg/mL
CC(C)[C@H]1NC(=O)[C@@H](C)NC(=O)[C@H](Cc2c[nH]c3ccccc23)NC(=O)[C@@H](CCCN)NC(=O)[C@H]([C@@H](C)O)NC(=O)[C@@H](CCCN)NC(=O)[C@H](Cc2c[nH]c3ccccc23)NC(=O)[C@@H](C)NC1=O,Balamuthia mandrillaris,"parasite growth, ATP luminescence",,,IC90,> 16 µg/mL
COC(=O)c1cc(-c2cccc(NC(=O)Nc3ccccc3OC)c2)on1,Escherichia coli,"microbial growth, broth dilution",ATCC25922,,MIC,> 64 µg/mL
C[C@@H](O)[C@@H]1NC(=O)[C@@H](CCCCN)NC(=O)[C@H](CCCN)NC(=O)[C@@H](CCCN)NC(=O)[C@H](CO)NC(=O)[C@H](Cc2c[nH]c3ccccc23)NC(=O)[C@@H](Cc2c[nH]c3ccccc23)NC1=O,Balamuthia mandrillaris,"parasite growth, ATP luminescence",,,IC90,> 16 µg/mL
O=C(NNc1cccc(Cl)c1)c1nnc(C23CC4CC(CC(C4)C2)C3)o1,Fusarium oxysporum,microbial growth,,,EC50,6.22 µg/mL
CC(C)[C@@H]1NC(=O)[C@@H](CCCCN)NC(=O)[C@H](CCCN)NC(=O)[C@@H](CCCN)NC(=O)[C@H](C)NC(=O)[C@H](Cc2c[nH]c3ccccc23)NC(=O)[C@@H](Cc2ccccc2)NC1=O,Balamuthia mandrillaris,"parasite growth, ATP luminescence",,,IC90,> 16 µg/mL
CCCCCCNC(=S)Nc1cccc(-c2cc(C(=O)OC)no2)c1,Mycobacteroides abscessus,"microbial growth, broth dilution",ATCC19977,48 h,MIC,> 64 µg/mL
O=C(NCCc1ncc(C(F)(F)F)cc1Cl)c1ccccc1C(F)(F)F,Fusarium oxysporum,microbial growth,,,EC50,> 50 µg/mL

# For quick reference, copied from above:
Compound,tested on,test,test system,setting,measurement,result
COC(=O)c1cc(-c2cccc(NC(=O)Nc3ccccc3C)c2)on1,Escherichia coli,"microbial growth, broth dilution",ATCC25922,,MIC,> 64 µg/mL
CC(=O)N1CCN(c2ccc(OCC3COC(Cn4ccnc4)(c4ccc(Cl)cc4Cl)O3)cc2)CC1 (stereo not shown),Candida albicans,"microbial killing, broth dilution",17546,48 h,MFC,> 64 µM
O=C(NNc1ccc(F)c(F)c1)c1nnc(CC23CC4CC(CC(C4)C2)C3)o1,Fusarium oxysporum,microbial growth,,,EC50,7.43 µg/mL
O=C(NNc1cccc(Cl)c1)c1nnc(C23CC4CC(CC(C4)C2)C3)o1,Fusarium oxysporum,microbial growth,,,EC50,6.22 µg/mL
